Literature values, collected from citations in different studies.
Compare with care: the assays were run in different laboratories. Several values in a cell are separate wells, animals, samples, runs or records. ± marks the error that the study gave.
SIGMAR1: Sigma non-opioid intracellular receptor 1 (SIGMAR1, Homo sapiens, UniProt Q99720)
Sequence of UniProt Q99720 (whole entry, looked up): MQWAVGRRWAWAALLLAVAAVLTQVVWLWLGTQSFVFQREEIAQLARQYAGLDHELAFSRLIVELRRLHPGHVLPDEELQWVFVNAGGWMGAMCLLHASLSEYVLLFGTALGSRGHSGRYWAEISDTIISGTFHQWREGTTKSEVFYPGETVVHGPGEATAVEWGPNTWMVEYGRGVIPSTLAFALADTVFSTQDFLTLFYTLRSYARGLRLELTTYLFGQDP
CA12: Carbonic anhydrase 12 (CA12, Homo sapiens, UniProt O43570)
Sequence of UniProt O43570 (whole entry, looked up): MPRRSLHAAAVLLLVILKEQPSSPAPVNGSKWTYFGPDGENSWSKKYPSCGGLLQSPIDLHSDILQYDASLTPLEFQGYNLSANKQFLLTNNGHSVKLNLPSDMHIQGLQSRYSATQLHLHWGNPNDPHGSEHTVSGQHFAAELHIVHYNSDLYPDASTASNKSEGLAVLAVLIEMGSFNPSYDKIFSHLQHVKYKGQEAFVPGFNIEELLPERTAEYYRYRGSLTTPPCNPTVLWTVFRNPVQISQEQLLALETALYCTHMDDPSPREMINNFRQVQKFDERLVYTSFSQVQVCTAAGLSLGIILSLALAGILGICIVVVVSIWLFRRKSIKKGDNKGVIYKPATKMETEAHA
Sequence of UniProt Q16819 (whole entry, looked up): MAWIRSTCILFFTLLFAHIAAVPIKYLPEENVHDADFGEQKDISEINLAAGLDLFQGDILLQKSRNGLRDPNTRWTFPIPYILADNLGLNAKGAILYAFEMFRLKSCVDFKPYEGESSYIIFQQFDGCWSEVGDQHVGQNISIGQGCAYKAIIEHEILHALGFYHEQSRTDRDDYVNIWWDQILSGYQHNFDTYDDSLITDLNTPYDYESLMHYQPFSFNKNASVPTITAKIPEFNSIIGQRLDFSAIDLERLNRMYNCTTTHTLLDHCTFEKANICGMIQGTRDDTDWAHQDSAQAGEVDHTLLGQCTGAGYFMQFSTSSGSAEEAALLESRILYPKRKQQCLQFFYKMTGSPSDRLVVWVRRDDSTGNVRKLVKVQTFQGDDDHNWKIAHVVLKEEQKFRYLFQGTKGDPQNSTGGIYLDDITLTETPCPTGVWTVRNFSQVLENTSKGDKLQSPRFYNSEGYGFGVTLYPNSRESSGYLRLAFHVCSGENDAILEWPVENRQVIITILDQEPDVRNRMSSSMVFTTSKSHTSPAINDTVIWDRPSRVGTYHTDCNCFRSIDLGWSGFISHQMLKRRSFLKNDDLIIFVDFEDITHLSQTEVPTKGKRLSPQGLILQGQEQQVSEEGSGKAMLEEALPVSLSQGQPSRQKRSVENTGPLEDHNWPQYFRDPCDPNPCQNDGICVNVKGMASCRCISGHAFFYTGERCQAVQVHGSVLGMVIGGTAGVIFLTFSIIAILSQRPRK
Sequence of UniProt Q15761 (whole entry, looked up): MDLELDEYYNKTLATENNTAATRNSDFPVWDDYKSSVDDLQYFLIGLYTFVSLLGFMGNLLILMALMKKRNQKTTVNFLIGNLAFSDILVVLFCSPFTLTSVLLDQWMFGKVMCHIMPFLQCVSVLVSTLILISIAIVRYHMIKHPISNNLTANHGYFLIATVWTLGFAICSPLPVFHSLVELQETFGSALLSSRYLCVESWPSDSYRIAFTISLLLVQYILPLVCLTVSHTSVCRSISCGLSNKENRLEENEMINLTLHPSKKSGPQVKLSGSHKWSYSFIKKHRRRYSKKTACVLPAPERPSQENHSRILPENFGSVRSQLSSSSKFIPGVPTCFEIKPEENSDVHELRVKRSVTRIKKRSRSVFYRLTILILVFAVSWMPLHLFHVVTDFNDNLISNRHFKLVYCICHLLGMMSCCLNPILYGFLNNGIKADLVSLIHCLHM
Sequence of UniProt Q04609 (whole entry, looked up): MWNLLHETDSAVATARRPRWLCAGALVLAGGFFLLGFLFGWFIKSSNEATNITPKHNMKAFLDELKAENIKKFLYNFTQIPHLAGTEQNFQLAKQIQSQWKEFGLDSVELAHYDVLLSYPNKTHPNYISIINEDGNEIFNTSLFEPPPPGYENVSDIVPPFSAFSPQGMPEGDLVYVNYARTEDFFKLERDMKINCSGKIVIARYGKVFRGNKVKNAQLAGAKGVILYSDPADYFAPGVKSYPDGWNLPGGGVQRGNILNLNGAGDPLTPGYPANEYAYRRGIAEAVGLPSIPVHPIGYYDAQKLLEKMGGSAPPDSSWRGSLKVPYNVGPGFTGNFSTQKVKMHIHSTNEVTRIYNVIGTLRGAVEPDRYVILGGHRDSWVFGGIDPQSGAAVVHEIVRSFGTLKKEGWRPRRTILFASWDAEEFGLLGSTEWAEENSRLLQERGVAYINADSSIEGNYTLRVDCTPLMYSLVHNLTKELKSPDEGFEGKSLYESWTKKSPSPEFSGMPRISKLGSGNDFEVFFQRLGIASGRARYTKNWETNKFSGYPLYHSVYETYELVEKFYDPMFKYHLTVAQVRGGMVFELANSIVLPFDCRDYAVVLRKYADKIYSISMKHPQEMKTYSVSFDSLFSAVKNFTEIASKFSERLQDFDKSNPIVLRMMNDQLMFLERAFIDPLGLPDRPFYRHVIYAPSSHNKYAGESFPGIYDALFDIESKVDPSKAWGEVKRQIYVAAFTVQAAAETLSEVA
Sequence of UniProt P9WHE9 (whole entry, looked up): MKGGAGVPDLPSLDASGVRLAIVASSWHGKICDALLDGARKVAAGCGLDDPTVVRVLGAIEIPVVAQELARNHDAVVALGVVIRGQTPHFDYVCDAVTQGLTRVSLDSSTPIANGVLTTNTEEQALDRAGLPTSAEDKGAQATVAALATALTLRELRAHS
Sequence of UniProt P07686 (whole entry, looked up): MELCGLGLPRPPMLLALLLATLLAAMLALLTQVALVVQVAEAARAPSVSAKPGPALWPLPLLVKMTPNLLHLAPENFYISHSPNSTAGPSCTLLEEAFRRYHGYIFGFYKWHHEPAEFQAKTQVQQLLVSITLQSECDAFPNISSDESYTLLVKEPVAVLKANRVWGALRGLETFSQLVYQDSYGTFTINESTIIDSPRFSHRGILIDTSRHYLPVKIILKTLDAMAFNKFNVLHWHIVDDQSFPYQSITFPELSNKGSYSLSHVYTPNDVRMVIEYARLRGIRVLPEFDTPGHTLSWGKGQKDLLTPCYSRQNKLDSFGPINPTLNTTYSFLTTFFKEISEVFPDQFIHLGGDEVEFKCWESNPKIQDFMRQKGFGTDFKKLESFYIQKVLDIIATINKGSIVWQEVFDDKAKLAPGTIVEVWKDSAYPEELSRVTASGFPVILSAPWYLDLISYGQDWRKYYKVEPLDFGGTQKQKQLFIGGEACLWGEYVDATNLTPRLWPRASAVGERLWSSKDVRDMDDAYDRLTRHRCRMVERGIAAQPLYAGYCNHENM

For `C=CC(=O)N1CCC[C@@H](n2nc(-c3cccc4ccccc34)c3c(N)ncnc32)C1`, the Ki was 47 ± 5.8 nM (Epidermal growth factor receptor (EGFR, Homo sapiens, UniProt P00533)).
With `NS(=O)(=O)c1ccc(CCn2c(S)nc3ccccc3c2=O)cc1` the Ki was 31.5 nM (carbonic anhydrase I; enzyme activity, inhibitor).
With `CC(C)C(=O)Nc1c(NC[C@H](O)[C@H](O)[C@H](O)CO)[nH]c(=O)[nH]c1=O` the Ki was 95000 ± 36000 nM (Bacillus subtilis lumazine synthase; inhibitor; recombinant β60 capsid; pH 7.0, Tris·HCl buffer, added: 2 constant, 1 varied).
For `COc1cc2c(cc1OC)CN(CCCCn1ccc3c(OCCF)cccc31)C2`, the Ki was 371 ± 105 nM (SIGMAR1; binding).
`C/C(=N\NC(=O)CSc1nc2ccccc2c(=O)n1CCc1ccc(S(N)(=O)=O)cc1)c1ccccc1` gave a Ki of 12.7 nM (CA12; enzyme activity, inhibitor).
For `C=CCC(=N)NCCC[C@H](N)C(=O)O`, the Ki was 12000 nM (bovine eNOS).
For `NS(=O)(=O)c1ccc(CCNC(=O)CSc2nc3ccc(I)cc3c(=O)n2Cc2ccccc2)cc1`, the Ki was 5.2 to 8.9 nM (carbonic anhydrase XII, human).
With `O=C(/C=C/C=C/c1ccccc1)c1ccco1` the Ki was 4.1 nM (MAO-B).
`O=C(/C=C/c1ccsc1)c1cc2ccccc2oc1=O` has a Ki of > 30000 nM (adenosine A1 receptor (human)).
With `COC(=O)CN(C/C=C/c1ccc(OC)c(OC)c1)Cc1ccc(F)cc1` the Ki was 39000 nM (9-cis-epoxycarotenoid dioxygenase (recombinant); reversible competitive inhibitor).
`NS(=O)(=O)c1ccc(Nc2nc(CC(=O)c3ccccc3)ns2)cc1` has a Ki of 34.2 nM (human carbonic anhydrase XII; inhibitor).
The Ki of `O=C(CCN(Cc1ccccc1)Cc1ccccc1)NO` is reported as 1650 nM (Meprin A subunit alpha (MEP1A, Homo sapiens, UniProt Q16819); inhibitor).
`O=c1[nH]cnc2c([C@@H]3N[C@H](COP(=O)(O)O)[C@@H](O)[C@H]3O)c[nH]c12` gave a Ki of 170 ± 30 nM (Trypanosoma cruzi HGPRT; inhibitor).
`O=c1[nH]c(NC[C@H](O)[C@H](O)[C@H](O)CO)c([N+](=O)[O-])c(=O)[nH]1` gave a Ki of 16000 ± 1000 nM (Bacillus subtilis lumazine synthase; inhibitor; recombinant β60 capsid; pH 7.0, Tris·HCl buffer, added: 2 constant, 1 varied).
For `O=c1[nH]cnc2c(CNC(CO)COP(=O)(O)O)c[nH]c12` (racemic), the Ki was 15 ± 4 nM (Plasmodium falciparum HGXPRT; inhibitor).
The Ki of `CCn1cc(-c2cc(Cn3ccnc3)cc3c2CCN([C@H](c2cc(OC)ccn2)C2CC2)C3=O)c(C(F)(F)F)n1` is reported as < 0.02 nM (WD repeat-containing protein 5 (WDR5, Homo sapiens, UniProt P61964); TR-FRET).
With `CCOC(=O)C(=O)Nc1c(NC[C@H](O)[C@H](O)[C@H](O)CO)[nH]c(=O)[nH]c1=O` the Ki was 607000 ± 177000 nM (Bacillus subtilis lumazine synthase; inhibitor; recombinant β60 capsid; pH 7.0, Tris·HCl buffer, added: 2 constant, 1 varied).
`N=C(N)SCc1ccccc1CSC(=N)N` gave a Ki of 14200 nM (Na+/K+-ATPase).
For `COc1cc2c(cc1OC)CN(CCCCn1ccc3cc(OCCF)ccc31)C2`, the Ki was 187 ± 1.41 nM (SIGMAR1; binding).
With `COc1cc2c(cc1OC)[C@@H]1C[C@@H](O)[C@@H](CC(C)C)CN1CC2` the Ki was 0.017 µg/mL (dopamine D2 receptor; binding).
For `NCCN(CCNC(=O)c1ccc(C(=O)NCCOCCOCCNC(=O)/N=C(/N)NCCC[C@@H](NC(=O)C(c2ccccc2)c2ccccc2)C(=O)NCc2ccc(O)cc2)cc1)CCNC(=O)c1ccc(C(=O)NCCOCCOCCNC(=O)/N=C(/N)NCCC[C@@H](NC(=O)C(c2ccccc2)c2ccccc2)C(=O)NCc2ccc(O)cc2)cc1`, the Ki was > 5000 nM (Neuropeptide Y receptor type 5 (NPY5R, Homo sapiens, UniProt Q15761); binding).
The Ki of `NCCN1C(=O)c2cccc3cccc(c23)C1=O` is reported as 2080 nM (Beta-hexosaminidase subunit beta (HEXB, Homo sapiens, UniProt P07686)).
`Nc1nc2c(CNCCCP(=O)(O)O)c[nH]c2c(=O)[nH]1` gave a Ki of 110 ± 6 nM (Plasmodium falciparum HGXPRT; inhibitor).
The Ki of `CCCCOC(=O)NS(=O)(=O)c1sc(CC(C)C)cc1-c1cccc(CN(Cc2cccnc2)C(C)=O)c1` is reported as 83 nM (angiotensin II type 2 receptor, pig; uterus membranes).
The Ki of `COC(=O)NC(C(=O)NN(Cc1ccc(Br)cc1)CC(O)(Cc1ccccc1)C(=O)Nc1cccc(O)c1C)C(C)(C)C` (centres unmarked) is reported as 480 nM (Gag-Pol polyprotein, protease (gag-pol, Human immunodeficiency virus type 1 group M subtype B, UniProt P04585); inhibitor).
`O=C(c1ccc(F)cc1)C1CCN(C2Cc3c(cccc3OCCF)CC2O)CC1` (single isomer, unassigned; (-)) gave a Ki of > 10000 nM (sigma-1 receptor; binding).
`O=c1[nH]cnc2c(CN[C@H](CO)CCP(=O)(O)O)c[nH]c12` has a Ki of 0.6 nM and 0.5 to 0.6 nM (Plasmodium falciparum HGXPRT; inhibitor).
`COc1ccccc1S` has a Ki of 3200 ± 300 nM (carbonic anhydrase II, human; inhibitor).
`COCCOc1cc2ncnc(Nc3cccc(-c4cn(CC(=O)Nc5ccc(S(N)(=O)=O)cc5)nn4)c3)c2cc1OCCOC` has a Ki of 56.3 nM (Helicobacter pylori alpha-carbonic anhydrase; inhibitor, stopped-flow CO2 hydration).
For `O=C([O-])CN1CCN(CC(=O)[O-])CCN(CC(=O)NCC2CCC(C(=O)NC(Cc3ccc4ccccc4c3)C(=O)NCCCCC(NC(=O)NC(CCC(=O)O)C(=O)O)C(=O)O)CC2)CCN(CC(=O)[O-])CC1.[Ga+3]` (centres unmarked), the Ki was 6.4 ± 1.02 nM (Glutamate carboxypeptidase 2 (FOLH1, Homo sapiens, UniProt Q04609); LNCaP).
For `Nc1nc2c(CN[C@H](CO)CCP(=O)(O)O)c[nH]c2c(=O)[nH]1`, the Ki was ~10 nM and 6 nM (Trypanosoma cruzi HGPRT; inhibitor).
`CNC(=O)[C@@]12C[C@@H]1[C@@H](n1cnc3c(NCc4cccc(Cl)c4)nc(SC)nc31)[C@H](O)[C@@H]2O` gave a Ki of 1.5 nM (adenosine A3 receptor).
`Nc1c(SC[C@H](O)[C@H](O)[C@H](O)CO)[nH]c(=O)[nH]c1=O` has a Ki of 31000 ± 11000 nM (6,7-dimethyl-8-ribityllumazine synthase (ribH, Mycobacterium tuberculosis, UniProt P9WHE9); inhibitor; pH 7.0).
`O=C(/C=C/Nc1ccccc1)c1cc2ccccc2oc1=O` has a Ki of 85.7 nM (CA12; inhibitor).
For `C#CCN(C)Cc1cc2ccc(OCCCN3CCCCC3)cc2n1C`, the Ki was 10.8 nM (histamine H3 receptor (human); binding).
`O=C(Cc1cccs1)N[C@H](B(O)O)c1cccc(C(=O)O)c1` gave a Ki of 21 nM (ADC-7 beta-lactamase; inhibitor).
The Ki of `COCCOc1cc2ncnc(Nc3cccc(-c4cn(CC(=O)Nc5cccc(S(N)(=O)=O)c5)nn4)c3)c2cc1OCCOC` is reported as 71.6 nM (Helicobacter pylori alpha-carbonic anhydrase; inhibitor, stopped-flow CO2 hydration).
`NS(=O)(=O)c1ccc(CCn2c(SCC(=O)N/N=C/c3ccccc3)nc3ccccc3c2=O)cc1` has a Ki of 38.4 nM (CA12; enzyme activity, inhibitor).
